Measured values of several laboratories.
Every numbered part comes from another study and shows a few of its results, in no order. Positions count from the first letter of the parent shown.

Block 1
Target: CREB3L4, bZIP domain (human)
Technique: DHFR protein complementation
Sample: yeast
Setting: single substitutions, most at no-binding floor
Reference: wild-type JUN-FOS pair
Direction: higher = stronger binding
Parent: JUN, bZIP domain (human); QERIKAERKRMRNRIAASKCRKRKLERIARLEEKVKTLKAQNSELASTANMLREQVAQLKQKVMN; partner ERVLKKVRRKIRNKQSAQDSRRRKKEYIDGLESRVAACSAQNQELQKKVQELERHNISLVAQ
With `E54S` the binding fitness was -1.48 natural log.
With `E32V` the binding fitness was -1.45 natural log.
For `S43M`, the binding fitness was -1.48 natural log.
`A49P` gave a binding fitness of -1.57 natural log.
With `Q41E` the binding fitness was -1.01 natural log.
For `E33I`, the binding fitness was -1.56 natural log.
For `K39H`, the binding fitness was -1.4 natural log.
`I28E` gave a binding fitness of -1.47 natural log.

Block 2
Target: CCNB1, cyclin fold, Cln2 fusion (human)
Technique: yeast growth competition, sequencing
Sample: yeast
Setting: weak parent motif
Reference: not given
Direction: higher = stronger binding
Parent: CDKN1B docking peptide (human); PSACRNLFGPVDH
Under “normalised enrichment score”, `A3T` is recorded as 0.15.
`R5M`: “normalised enrichment score” 0.349.
`R5K`: “normalised enrichment score” 0.0687.
For `H13P`, “normalised enrichment score” read 0.787.
`C4T` — result for “normalised enrichment score”: 0.0457.
`G9D`: “normalised enrichment score” 0.643.
Under “normalised enrichment score”, `S2Q` is recorded as 0.0153.
For `A3I`, “normalised enrichment score” read 2.22.

Single results of other studies
HCM1 DNA-binding domain: Forkhead transcription factor HCM1, DNA-binding domain (HCM1, Saccharomyces cerevisiae, UniProt P25364, residues 41-213)
Sequence of UniProt P25364 (41-213, looked up): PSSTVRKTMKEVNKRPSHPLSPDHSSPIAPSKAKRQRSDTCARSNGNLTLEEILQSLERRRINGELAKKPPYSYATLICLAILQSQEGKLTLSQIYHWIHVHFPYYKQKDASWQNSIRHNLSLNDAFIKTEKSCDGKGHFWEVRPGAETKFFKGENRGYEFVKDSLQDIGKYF
`CAAAACA`: “relative binding free energy” 0.783 ddG/RT (HCM1 DNA-binding domain; SELEX-seq; double-stranded DNA, one strand shown, in vitro; not given, 7-bp core, flanks averaged; reference: best-binding core, lower = stronger binding).
Cc1cn(-c2cc(NC(=O)c3ccc(C)c(Nc4nccc(-c5cccnc5)n4)c3)cc(C(F)(F)F)c2)cn1 has a remaining activity of 81.7% (PRKCG (Homo sapiens, UniProt P05129); enzyme activity, inhibitor; 0.5 µM; reference: control).
For `GATAACA`, “relative binding free energy” read 1.45 ddG/RT (HCM1 DNA-binding domain; SELEX-seq; double-stranded DNA, one strand shown, in vitro; not given, 7-bp core, flanks averaged; reference: best-binding core, lower = stronger binding).

Repeated from above (block 1):
With `E54S` the binding fitness was -1.48 natural log.
With `E32V` the binding fitness was -1.45 natural log.
For `S43M`, the binding fitness was -1.48 natural log.
